Results pooled from the literature.
A part holds a random share of what one study measured.

Study 1
Target: TAR DNA-binding protein 43, full length, His tag (TARDBP, Homo sapiens, UniProt Q13148, residues 1-414)
Method: RNA Bind-n-Seq
Form: RNA
Matrix: in vitro
Concentration: 20 nM
Notes: 6-mer, flanks averaged, single round
Added: 150 mM KCl
Reference: input library
Direction: higher = stronger binding
`CUAUCC` — result for “6-mer enrichment (R)”: 0.557.
For `GAGCAU`, “6-mer enrichment (R)” read 0.874.
Under “6-mer enrichment (R)”, `CUGACU` is recorded as 0.612.
`UAGGGU` — result for “6-mer enrichment (R)”: 1.8.
`UACACA` — result for “6-mer enrichment (R)”: 0.629.
`GAUAAA`: “6-mer enrichment (R)” 0.715.
Under “6-mer enrichment (R)”, `AUCCCU` is recorded as 0.598.
For `GCACAU`, “6-mer enrichment (R)” read 0.732.
Under “6-mer enrichment (R)”, `CUUCUA` is recorded as 0.542.
`AGUGCG`: “6-mer enrichment (R)” 1.61.

Study 2
Target: Protein C-ets-1 (ETS1, Homo sapiens, UniProt P14921, residues 1-441, Y397A, full length assumed)
Method: protein-binding microarray
Form: double-stranded DNA, one strand shown
Matrix: in vitro
Concentration: not given
Notes: k-mer, scored over probes, only values ≥0.25
Direction: higher = stronger binding
Residues (chain): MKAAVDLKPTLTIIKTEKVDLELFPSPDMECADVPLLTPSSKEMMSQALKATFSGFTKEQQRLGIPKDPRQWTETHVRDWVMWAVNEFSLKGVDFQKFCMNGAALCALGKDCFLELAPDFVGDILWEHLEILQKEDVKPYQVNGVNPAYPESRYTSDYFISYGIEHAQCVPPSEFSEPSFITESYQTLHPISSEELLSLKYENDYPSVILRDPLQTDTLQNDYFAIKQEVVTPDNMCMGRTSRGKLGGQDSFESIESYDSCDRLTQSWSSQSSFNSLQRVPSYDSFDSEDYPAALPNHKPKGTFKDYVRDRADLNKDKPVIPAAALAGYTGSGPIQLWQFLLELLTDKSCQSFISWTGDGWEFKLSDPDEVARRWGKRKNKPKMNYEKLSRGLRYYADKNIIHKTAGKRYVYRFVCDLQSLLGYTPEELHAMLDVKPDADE
For `ACCCGCGC`, the E-score was 0.285.
For `GACAGGAA`, the E-score was 0.274.
`ATTGTATA` has an E-score of 0.291.
With `CAATTGCA` the E-score was 0.279.
For `CGTCGCCA`, the E-score was 0.283.
For `CGCCCCTA`, the E-score was 0.268.
For `ACGGACAA`, the E-score was 0.305.
For `AGTTGTCA`, the E-score was 0.259.
`ACAACAAT` has an E-score of 0.345.
`CATCCGAC` gave an E-score of 0.26.

Study 3
Target: RNA binding protein fox-1 homolog 2, RRM domain, GST-SBP tag (RBFOX2, Homo sapiens, UniProt O43251-10, residues 100-194)
Method: RNA Bind-n-Seq
Form: RNA
Matrix: in vitro
Concentration: 365 nM
Notes: natural RNA segment, single round, ends assumed
Reference: no-protein control
Direction: higher = stronger binding
All sequences stand within: GGGAGUUCUACAGUCCGACGAUC … UGGAAUUCUCGGGUGCCAA
`UGUAAAGAGACACCAUGACAAAGACAACUCAUAUAAAAGGAAGUGUUGAGUUGGGGGCUUGCUUAUAGUUUCAGAGUUGAGUUUAUUUGCAUGGUGUCAGGCAGGCAGGA` — result for “RBNS enrichment (R)”: 1.05.
`UGCUUUCCUUCCUCGCUACUUCCUAAAAAGCAACAAAAAAGUUUUUGUGAAUGCUGCAAGAUUGUUGCAUUGUGUAUACUGAGAUAAUCUGAGGCAUGGAGAGCAGAUUC` — result for “RBNS enrichment (R)”: 13.5.
`GAUUUACUCAGAGCCACCUGACAGCAGGCCACUAGUGACAGUUUCUGUUAUGUUCCUAUGGAAACACUGUACUGUACAUACUAUGCUUAAAACAUUUAAAACACAAUGUU` — result for “RBNS enrichment (R)”: 0.472.
`GAGCCGCCCAGCGCUGGCCCUGCUGGGGACAGACAUGCCAUACAGGUACUUUGGGACCCCUGGGAGGGUCCUACGUCCAGCCUCCAUCUCGGUCCUCUGGCCCCUUCUCC` — result for “RBNS enrichment (R)”: 0.433.
`UCUCCAUCUUGCUAGGAAGAACCAACCCACAAAACAACGCCAUCACUGGAAUCUCCCAUCGCUUUAGUGAGCCAUUGUCGUAUGUCUAGUAAACUUUGUACUGAUUCAAA` — result for “RBNS enrichment (R)”: 0.635.
`UAACAAAUGUCAUCAUGAUUAAGGAAAUGUCUGGCACUUUAAUGGCAAAUUAAUUGAGAAUGUAUGAAAGUCAUGAAUGUACAAGCCAAAUAAAGCUCUUUAUUAACCCU` — result for “RBNS enrichment (R)”: 1.2.
`CCCUGGGAGCCCCCUCCCUGCAACCAGCCUGAGUUCAGCCCCACGGACAAAGGGACACACAGCCCCCAAUGGAGACCAUUGUAAGUGGUGGGGCUGGGAGAGGAGGAACA`: “RBNS enrichment (R)” 0.634.
For `UGUUGUCAUGGAGCUGUGGGAGUUGGCACUCUGUCUGCUGGUGGCCCUCUCGGCUCACAUGUUCACAGUGCAGCUCCUGGCAGACUUGGGUUUUCUCUUUGGUGGUUUCU`, “RBNS enrichment (R)” read 0.488.
For `CGCCCUGUACUGCACUAGAAUGAUGUAAUACCCCAAGAUGUCUGCUGCAGGUGGUGCAUCAUCGUAUACACUAAGUGACAUUUCUAUCACAAUCAUUUUAUGGAAGAUGU`, “RBNS enrichment (R)” read 0.596.
Under “RBNS enrichment (R)”, `ACCUCAGAUCAGUAUUGUGCAUUGUAGUCUACCUGCAUGUGAUCUAUGUUGACAUUUCGGGGAUAUUGUGUUCAAGAAUGAUUCCAAAUUUGAGCCACCAAAAUACACUG` is recorded as 8.33.
For `UAUAAGUUUCUUAAGGAAUUGUCCUGCUGACCUGUAUCUAACUAAUGAACUUAAGGGUCUGGGUUUUUUUUUCUUUUGUUUGUUUGUUCAUUUUGUUCAUUUGUUUGUUU`, “RBNS enrichment (R)” read 9.55.
Under “RBNS enrichment (R)”, `GCAGAACCAAUGGCCCCAGUCGGCUUUUGAGGUCUUGGUGAGAAGUACUGGCCACGAAAGGGUCUUGUGUAAAGUUACAUCAUCGGAGAGCGGUUUUUGAGCUUUCAAUA` is recorded as 0.37.

Single results of other studies
For `PhoQ, residues 284 288 289 292 302 303 TTSMTC`, the fold induction was 5.57 (PhoP, residues 12 14 15 18 19 NYFTV (Escherichia coli, UniProt P23836); Sort-seq, refers to: YFP reporter; E. coli; PhoQ-PhoP variant library, added: 10 µM Mg2+; reference: high Mg2+ state, higher = stronger signaling).

Repeated from above (study 3):
`GAGCCGCCCAGCGCUGGCCCUGCUGGGGACAGACAUGCCAUACAGGUACUUUGGGACCCCUGGGAGGGUCCUACGUCCAGCCUCCAUCUCGGUCCUCUGGCCCCUUCUCC` — result for “RBNS enrichment (R)”: 0.433.
`UCUCCAUCUUGCUAGGAAGAACCAACCCACAAAACAACGCCAUCACUGGAAUCUCCCAUCGCUUUAGUGAGCCAUUGUCGUAUGUCUAGUAAACUUUGUACUGAUUCAAA` — result for “RBNS enrichment (R)”: 0.635.
`UAACAAAUGUCAUCAUGAUUAAGGAAAUGUCUGGCACUUUAAUGGCAAAUUAAUUGAGAAUGUAUGAAAGUCAUGAAUGUACAAGCCAAAUAAAGCUCUUUAUUAACCCU` — result for “RBNS enrichment (R)”: 1.2.
`CCCUGGGAGCCCCCUCCCUGCAACCAGCCUGAGUUCAGCCCCACGGACAAAGGGACACACAGCCCCCAAUGGAGACCAUUGUAAGUGGUGGGGCUGGGAGAGGAGGAACA`: “RBNS enrichment (R)” 0.634.
For `UGUUGUCAUGGAGCUGUGGGAGUUGGCACUCUGUCUGCUGGUGGCCCUCUCGGCUCACAUGUUCACAGUGCAGCUCCUGGCAGACUUGGGUUUUCUCUUUGGUGGUUUCU`, “RBNS enrichment (R)” read 0.488.
